Measurements from different studies.
Compare with care: the assays were run in different laboratories. ± gives the spread as reported.
POLB: DNA polymerase beta (POLB, Homo sapiens, UniProt P06746)

COc1ccc(CNc2nc(-c3ccc(OC)c(OC)c3)cc(C(F)(F)F)n2)cc1
Emax (Secretin receptor (SCTR, Homo sapiens, UniProt P47872); cAMP, agonist): 27%

Nc1nc2c(ncn2[C@H]2C[C@H](O)[C@@H](COP(=O)(O)OP(=O)(O)[C@@H](F)P(=O)(O)O)O2)c(=O)[nH]1
kpol (POLB; substrate, quench-flow kinetics; pH 8.0, 37 °C, incorporation opposite C in gapped DNA): 9.2 ± 2.3 s⁻¹

N#Cc1cc(C(=O)OCC[18F])c(C(F)(F)F)nc1N1CCN(C(=O)Cc2ccccc2)CC1
target to normal ratio (P2Y purinoceptor 12 (P2ry12, Mus musculus, UniProt Q9CPV9); PET; mouse, chronic kainate epilepsy, brain): 1.12 ± 0.03

O=C(NCc1cccc(O)c1)c1cc(Cl)c(C(=O)NC(CNC(=S)Nc2ccc(-c3c4ccc(=O)cc-4oc4cc(O)ccc34)c(C(=O)O)c2)C(=O)O)c(Cl)c1 (centres unmarked)
koff (Integrin alpha-L/beta-2 (LFA-1) (Homo sapiens, UniProt P05107+P20701); probe dissociation, real-time flow cytometry FRET; live cells): 0.04 ± 0.003 s⁻¹

CC1=C(/C=C/C(C)=C/C=C/C(C)=C/C=O)C(C)(C)CCC1
time constant of current increase (CNGA1 (Bos taurus, UniProt Q00194); ion current, patch clamp; 200 nM, switch -50 to +50 mV, with: cGMP 2 mM): 64 s

Oc1c(C(Nc2nc3ccccc3s2)c2ccccc2OCc2ccccc2)ccc2cccnc12 (centres unmarked)
Hill slope (Genome polyprotein, NS2B-NS3 protease (Dengue virus type 2, UniProt P14340); enzyme activity, inhibitor; no CHAPS, with: Bz-Nle-Lys-Arg-Arg-AMC substrate): 1.24 ± 0.08

C[n+]1cn(C2OC(COP(=O)(O)OP(=O)([O-])OP(=O)(O)OCC3OC(n4cnc5c(=O)[nH]c(N)nc54)C(O)C3O)C(O)C2O)c2nc(NCc3ccccc3)[nH]c(=O)c21 (centres unmarked)
melting temperature (Eif4e (Mus musculus, UniProt P63073); differential scanning fluorimetry; 100 µM): 50.7 °C

CC(C)C[C@@H](CN[C@H](Cc1ccccc1)C(N)=O)NC(=O)[C@H](Cc1c[nH]cn1)NC(=O)CNC(=O)[C@@H](NC(=O)[C@H](C)NC(=O)[C@H](Cc1c[nH]c2ccccc12)NC(=O)[C@H](CCC(N)=O)NC(=O)[C@H](N)Cc1ccccc1)C(C)C
fold lower potency (NMBR (Homo sapiens, UniProt P28336); agonist; reference: NMB): 700 to 1400 fold

Cc1cn(C2CC(O)C(COP(=O)(O)OP(=O)(O)C(Br)P(=O)(O)O)O2)c(=O)[nH]c1=O (mixture of isomers)
kpol/Kd (POLB; substrate, single turnover kinetics): 290000 ± 60000 M⁻¹ s⁻¹

O=c1cc(CCl)[nH]c2c(-c3cccc4ccccc34)c(C(F)(F)F)nn12
current fold increase (KCNQ2 (Homo sapiens, UniProt O43526); potassium current, activator, whole-cell patch clamp; CHO, stable; 20 µM; reference: current before compound): 1.21 ± 0.1

O=C(Nc1cnc2ccccc2c1)c1ccc(-c2ccc(Cl)cc2)o1
activation (Nuclear receptor subfamily 4 group A member 2, ligand binding domain (Homo sapiens, UniProt P43354); reporter gene, agonist, Gal4-Nurr1 hybrid reporter; HEK-293T; 3 µM, crude library product; reference: vehicle (0.1% DMSO)): > 1.5 fold

CC1=C[C@@H]2C(=C(C)CC[C@H]2C(C)C)C[C@@H]1O
Km (DH1 dehydrogenase (Gossypium hirsutum); oxidation to 7-ketone, substrate): 0.48 ± 0.04 µM

COc1cc(C(=O)NC2CCC(N3CCN(CC4CCC5(CCCC5)C4)CC3)CC2)c(F)cc1Nc1ncc2c(n1)N(C1CCCC1(F)F)CC(F)(F)C(=O)N2C (centres unmarked)
inhibition (MET (Homo sapiens, UniProt P08581); cell-free assay, TR-FRET; 10 µM): 8.12%

CCC1CC2C(C)=CC3C(=O)CCCC3C=CC(C)=CC2C(=O)O1 (centres unmarked)
R3 fibril reduction (Microtubule-associated protein tau, R3 peptide oligomers (MAPT, Homo sapiens, UniProt P10636); thioflavin T fluorescence; 1000 µM): 83.8%

Some of these lines once more:
Nc1nc2c(ncn2[C@H]2C[C@H](O)[C@@H](COP(=O)(O)OP(=O)(O)[C@@H](F)P(=O)(O)O)O2)c(=O)[nH]1
kpol (POLB; substrate, quench-flow kinetics; pH 8.0, 37 °C, incorporation opposite C in gapped DNA): 9.2 ± 2.3 s⁻¹

N#Cc1cc(C(=O)OCC[18F])c(C(F)(F)F)nc1N1CCN(C(=O)Cc2ccccc2)CC1
target to normal ratio (P2Y purinoceptor 12 (P2ry12, Mus musculus, UniProt Q9CPV9); PET; mouse, chronic kainate epilepsy, brain): 1.12 ± 0.03
